Published values pooled from the literature.
Numbered parts are unrelated; each lists some results of a single study.

Set 1 — method: universal PBM; form: double-stranded DNA, one strand shown; matrix: in vitro; concentration: not given; direction: higher = stronger binding
Target: Sal-like protein 4, full length isoform B (SALL4, Homo sapiens, UniProt Q9UJQ4-2, residues 1-616)
Notes: 8-mer, flanks averaged, mean of replicates
Residues (chain): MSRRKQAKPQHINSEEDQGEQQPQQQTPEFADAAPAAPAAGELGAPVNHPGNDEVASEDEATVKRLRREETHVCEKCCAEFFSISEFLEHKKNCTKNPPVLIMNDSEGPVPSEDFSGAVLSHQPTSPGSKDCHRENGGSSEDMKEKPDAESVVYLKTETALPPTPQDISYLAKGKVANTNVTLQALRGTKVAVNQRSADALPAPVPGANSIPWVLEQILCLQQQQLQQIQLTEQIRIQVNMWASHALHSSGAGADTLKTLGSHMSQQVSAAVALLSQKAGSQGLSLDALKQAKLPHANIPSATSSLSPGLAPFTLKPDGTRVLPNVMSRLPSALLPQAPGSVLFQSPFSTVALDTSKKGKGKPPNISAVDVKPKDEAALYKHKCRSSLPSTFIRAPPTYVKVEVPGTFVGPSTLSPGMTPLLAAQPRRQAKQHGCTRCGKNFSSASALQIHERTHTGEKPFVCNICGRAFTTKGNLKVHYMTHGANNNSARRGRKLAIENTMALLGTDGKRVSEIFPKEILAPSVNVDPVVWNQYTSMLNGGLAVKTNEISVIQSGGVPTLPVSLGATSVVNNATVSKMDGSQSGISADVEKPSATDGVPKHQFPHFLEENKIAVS
Sequence	E-score
ACATTAGA	0.21
AACTCCGA	-0.152
CCTGGACC	-0.236

Other studies, line by line
IRF7 S471D/S472D/S475D/S476D/S477D/S483D/S484D/S487D full length, phosphomimetic: Interferon regulatory factor 7, full length, phosphomimetic (IRF7, Homo sapiens, UniProt Q92985, residues 1-503, S471D/S472D/S475D/S476D/S477D/S483D/S484D/S487D)
Sequence of UniProt Q92985 (whole entry, unmodified, looked up): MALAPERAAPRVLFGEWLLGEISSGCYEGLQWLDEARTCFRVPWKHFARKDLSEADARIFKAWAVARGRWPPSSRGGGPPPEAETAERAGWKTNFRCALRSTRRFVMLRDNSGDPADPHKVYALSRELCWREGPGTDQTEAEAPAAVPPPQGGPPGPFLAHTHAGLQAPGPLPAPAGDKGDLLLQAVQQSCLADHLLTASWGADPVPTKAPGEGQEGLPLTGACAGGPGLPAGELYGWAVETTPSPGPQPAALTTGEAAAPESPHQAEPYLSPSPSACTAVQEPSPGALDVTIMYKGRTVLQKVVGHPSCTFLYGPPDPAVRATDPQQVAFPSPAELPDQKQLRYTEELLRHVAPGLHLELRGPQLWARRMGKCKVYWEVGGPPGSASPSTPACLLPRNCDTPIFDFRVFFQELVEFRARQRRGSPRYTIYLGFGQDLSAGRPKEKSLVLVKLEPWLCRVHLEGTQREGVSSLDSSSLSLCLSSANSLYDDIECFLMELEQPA
F2 mature alpha-thrombin: Prothrombin, mature alpha-thrombin (F2, Homo sapiens, UniProt P00734)
IRF5 S451D/S453D/S456D/S462D full length, phosphomimetic: Interferon regulatory factor 5, full length, phosphomimetic (IRF5, Homo sapiens, UniProt Q13568-2, residues 1-514, S451D/S453D/S456D/S462D)
Substance	target	assay	system	setting	how to read	endpoint	result
GCCTAGCACGACGGTATCGACTTTCGGGTCGTGCTAGTCTTGATTCGCTTGACGCTGCTG	IRF7 S471D/S472D/S475D/S476D/S477D/S483D/S484D/S487D full length, phosphomimetic	protein-binding microarray	double-stranded DNA, one strand shown, in vitro	2200 nM top, 60-bp whole probe, with: salmon DNA 0.4 mg/ml	reference: random background probes, higher = stronger binding	fitted relative affinity	6.41 z-score
GGTTGGTGTGGTTGG (2'F-ANA at 2 3 4 5 7 8 11 12 13 14)	F2 mature alpha-thrombin	aptamer microarray, sandwich	DNA with 2'F-ANA, in vitro	200 nM, whole 15-mer aptamer, many near background, with: Cy3 exosite-II aptamer, 400 nM	higher = stronger binding	mean fluorescence intensity	50.8 a.u.
GCCTAGCACGACGGTTTCCTTTTCCTGAGGTGCTAGGTCTTGATTCGCTTGACGCTGCTG	IRF5 S451D/S453D/S456D/S462D full length, phosphomimetic	protein-binding microarray	double-stranded DNA, one strand shown, in vitro	940 nM top, 60-bp whole probe, with: salmon DNA 0.4 mg/ml	reference: random background probes, higher = stronger binding	fitted relative affinity	1.74 z-score
PhoQ, residues 284 288 289 292 302 303 TYGVAM	PhoP, residues 12 14 15 18 19 AQALL (Escherichia coli, UniProt P23836)	Sort-seq, measured: YFP reporter	E. coli	PhoQ-PhoP variant library, with: 10 µM Mg2+	reference: high Mg2+ state, higher = stronger signaling	fold induction	16.2
GCCTAGCACGACCGTCTCCTTTTCCTGACGTGCTAGGTCTTGATTCGCTTGACGCTGCTG	IRF5 S451D/S453D/S456D/S462D full length, phosphomimetic	protein-binding microarray	double-stranded DNA, one strand shown, in vitro	940 nM top, 60-bp whole probe, with: salmon DNA 0.4 mg/ml	reference: random background probes, higher = stronger binding	fitted relative affinity	0.652 z-score
GGTTGGTGTGGTTGG (2'F-ANA at 1 3 8 12 15)	F2 mature alpha-thrombin	aptamer microarray, sandwich	DNA with 2'F-ANA, in vitro	200 nM, whole 15-mer aptamer, many near background, with: Cy3 exosite-II aptamer, 400 nM	higher = stronger binding	mean fluorescence intensity	692 a.u.
GCCTAGCACTCATGTTTTTCATTGTTACTGTGCTAGGTCTTGATTCGCTTGACGCTGCTG	IRF7 S471D/S472D/S475D/S476D/S477D/S483D/S484D/S487D full length, phosphomimetic	protein-binding microarray	double-stranded DNA, one strand shown, in vitro	2200 nM top, 60-bp whole probe, with: salmon DNA 0.4 mg/ml	reference: random background probes, higher = stronger binding	fitted relative affinity	2.03 z-score

A few entries again (other studies, line by line):
Substance	target	assay	system	setting	how to read	endpoint	result
PhoQ, residues 284 288 289 292 302 303 TYGVAM	PhoP, residues 12 14 15 18 19 AQALL (Escherichia coli, UniProt P23836)	Sort-seq, measured: YFP reporter	E. coli	PhoQ-PhoP variant library, with: 10 µM Mg2+	reference: high Mg2+ state, higher = stronger signaling	fold induction	16.2
